Measurements of several laboratories.
Parts stem from different laboratories: compare values within a part only. “And” joins repeats or separate records; there may be more than shown.
Chain of UniProt O43353 (whole entry, looked up): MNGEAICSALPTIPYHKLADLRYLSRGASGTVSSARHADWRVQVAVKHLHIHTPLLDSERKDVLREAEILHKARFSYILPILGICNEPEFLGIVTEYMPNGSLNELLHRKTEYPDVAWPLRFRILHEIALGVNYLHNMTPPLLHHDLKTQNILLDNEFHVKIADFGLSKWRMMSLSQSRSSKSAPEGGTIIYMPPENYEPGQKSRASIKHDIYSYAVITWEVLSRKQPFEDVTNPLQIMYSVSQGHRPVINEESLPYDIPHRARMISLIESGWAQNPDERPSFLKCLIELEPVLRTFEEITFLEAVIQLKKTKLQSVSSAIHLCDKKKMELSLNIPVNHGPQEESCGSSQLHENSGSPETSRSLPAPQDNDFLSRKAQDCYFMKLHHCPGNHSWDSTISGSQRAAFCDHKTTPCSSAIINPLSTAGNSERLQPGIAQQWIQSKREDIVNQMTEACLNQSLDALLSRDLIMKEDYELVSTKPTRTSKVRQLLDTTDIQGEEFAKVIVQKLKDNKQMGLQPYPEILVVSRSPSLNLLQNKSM
Chain of UniProt Q9NSY1 (whole entry, looked up): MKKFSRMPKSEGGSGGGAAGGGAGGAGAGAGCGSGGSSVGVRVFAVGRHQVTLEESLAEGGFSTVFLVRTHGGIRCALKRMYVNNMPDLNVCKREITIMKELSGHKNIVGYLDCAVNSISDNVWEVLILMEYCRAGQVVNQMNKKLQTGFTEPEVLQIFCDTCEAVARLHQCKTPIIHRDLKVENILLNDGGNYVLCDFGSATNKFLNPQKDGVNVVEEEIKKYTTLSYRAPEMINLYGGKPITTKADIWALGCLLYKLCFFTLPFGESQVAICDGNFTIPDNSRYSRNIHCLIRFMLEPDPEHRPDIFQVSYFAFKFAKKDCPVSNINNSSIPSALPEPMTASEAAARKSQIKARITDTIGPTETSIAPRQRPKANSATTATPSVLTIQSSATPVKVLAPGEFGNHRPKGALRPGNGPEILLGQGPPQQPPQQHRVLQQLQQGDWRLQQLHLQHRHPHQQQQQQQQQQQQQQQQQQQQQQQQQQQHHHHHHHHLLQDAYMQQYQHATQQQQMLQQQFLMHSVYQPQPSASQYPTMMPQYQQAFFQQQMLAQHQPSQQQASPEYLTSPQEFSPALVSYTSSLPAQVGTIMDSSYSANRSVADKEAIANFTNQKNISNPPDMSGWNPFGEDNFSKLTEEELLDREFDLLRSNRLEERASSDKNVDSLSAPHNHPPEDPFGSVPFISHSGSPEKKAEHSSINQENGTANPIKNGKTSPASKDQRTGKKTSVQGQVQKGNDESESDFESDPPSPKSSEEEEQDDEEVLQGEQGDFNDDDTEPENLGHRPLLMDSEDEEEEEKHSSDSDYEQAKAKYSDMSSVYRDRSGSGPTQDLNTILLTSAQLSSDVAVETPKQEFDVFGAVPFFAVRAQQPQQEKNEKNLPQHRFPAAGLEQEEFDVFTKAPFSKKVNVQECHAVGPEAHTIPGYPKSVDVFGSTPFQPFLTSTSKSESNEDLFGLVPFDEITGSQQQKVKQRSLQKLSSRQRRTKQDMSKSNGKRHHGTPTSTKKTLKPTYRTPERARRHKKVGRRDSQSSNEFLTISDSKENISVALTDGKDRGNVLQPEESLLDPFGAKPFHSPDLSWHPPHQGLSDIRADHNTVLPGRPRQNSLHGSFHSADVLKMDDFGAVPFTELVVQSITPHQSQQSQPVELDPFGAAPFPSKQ
Chain of UniProt Q13470 (whole entry, looked up): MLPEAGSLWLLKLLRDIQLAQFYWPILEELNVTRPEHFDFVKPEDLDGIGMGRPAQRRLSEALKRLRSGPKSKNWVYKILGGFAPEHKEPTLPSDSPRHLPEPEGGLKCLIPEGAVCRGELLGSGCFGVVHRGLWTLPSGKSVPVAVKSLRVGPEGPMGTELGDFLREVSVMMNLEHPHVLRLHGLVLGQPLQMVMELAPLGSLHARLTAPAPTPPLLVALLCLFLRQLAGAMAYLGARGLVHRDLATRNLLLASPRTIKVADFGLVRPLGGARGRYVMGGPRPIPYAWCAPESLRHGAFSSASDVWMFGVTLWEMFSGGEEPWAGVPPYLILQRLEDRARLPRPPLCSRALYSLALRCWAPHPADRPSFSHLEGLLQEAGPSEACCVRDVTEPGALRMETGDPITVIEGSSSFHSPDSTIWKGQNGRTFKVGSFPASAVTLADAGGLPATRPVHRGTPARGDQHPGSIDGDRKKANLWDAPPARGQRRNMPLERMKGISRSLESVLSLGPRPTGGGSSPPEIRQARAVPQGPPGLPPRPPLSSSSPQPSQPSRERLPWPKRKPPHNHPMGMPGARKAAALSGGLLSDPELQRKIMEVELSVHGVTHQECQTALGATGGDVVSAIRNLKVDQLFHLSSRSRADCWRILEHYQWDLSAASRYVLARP
Chain of UniProt Q15349 (whole entry, looked up): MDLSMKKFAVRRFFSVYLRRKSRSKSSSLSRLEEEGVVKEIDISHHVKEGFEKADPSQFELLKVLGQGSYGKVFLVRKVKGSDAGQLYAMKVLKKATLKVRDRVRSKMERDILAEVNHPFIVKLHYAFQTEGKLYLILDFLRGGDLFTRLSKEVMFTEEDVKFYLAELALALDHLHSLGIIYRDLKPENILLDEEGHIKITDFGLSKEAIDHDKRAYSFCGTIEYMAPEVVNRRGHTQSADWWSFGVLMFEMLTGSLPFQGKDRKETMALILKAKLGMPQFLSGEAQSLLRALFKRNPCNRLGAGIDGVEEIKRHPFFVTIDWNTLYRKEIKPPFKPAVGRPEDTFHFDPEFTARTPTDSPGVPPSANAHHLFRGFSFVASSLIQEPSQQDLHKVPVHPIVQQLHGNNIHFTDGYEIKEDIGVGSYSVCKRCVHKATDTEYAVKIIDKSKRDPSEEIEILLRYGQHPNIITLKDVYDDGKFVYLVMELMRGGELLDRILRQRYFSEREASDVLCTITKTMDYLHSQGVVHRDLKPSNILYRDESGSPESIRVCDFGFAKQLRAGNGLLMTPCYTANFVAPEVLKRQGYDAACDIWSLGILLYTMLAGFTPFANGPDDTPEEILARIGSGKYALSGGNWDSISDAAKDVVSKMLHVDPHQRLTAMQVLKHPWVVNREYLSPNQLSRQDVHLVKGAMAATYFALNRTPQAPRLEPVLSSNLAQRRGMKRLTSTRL
Chain of UniProt Q9HBY8 (whole entry, looked up): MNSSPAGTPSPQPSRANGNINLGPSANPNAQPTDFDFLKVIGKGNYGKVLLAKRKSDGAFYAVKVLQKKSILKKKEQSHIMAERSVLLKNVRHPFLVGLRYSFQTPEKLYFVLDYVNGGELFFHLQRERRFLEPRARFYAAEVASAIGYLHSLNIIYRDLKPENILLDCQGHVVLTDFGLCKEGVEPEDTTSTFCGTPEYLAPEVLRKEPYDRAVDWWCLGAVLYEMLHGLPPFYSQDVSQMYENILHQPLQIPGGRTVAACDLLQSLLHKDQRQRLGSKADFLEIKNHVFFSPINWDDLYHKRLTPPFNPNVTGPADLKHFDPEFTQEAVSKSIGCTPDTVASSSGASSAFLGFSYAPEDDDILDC
Chain of UniProt Q00536 (whole entry, looked up): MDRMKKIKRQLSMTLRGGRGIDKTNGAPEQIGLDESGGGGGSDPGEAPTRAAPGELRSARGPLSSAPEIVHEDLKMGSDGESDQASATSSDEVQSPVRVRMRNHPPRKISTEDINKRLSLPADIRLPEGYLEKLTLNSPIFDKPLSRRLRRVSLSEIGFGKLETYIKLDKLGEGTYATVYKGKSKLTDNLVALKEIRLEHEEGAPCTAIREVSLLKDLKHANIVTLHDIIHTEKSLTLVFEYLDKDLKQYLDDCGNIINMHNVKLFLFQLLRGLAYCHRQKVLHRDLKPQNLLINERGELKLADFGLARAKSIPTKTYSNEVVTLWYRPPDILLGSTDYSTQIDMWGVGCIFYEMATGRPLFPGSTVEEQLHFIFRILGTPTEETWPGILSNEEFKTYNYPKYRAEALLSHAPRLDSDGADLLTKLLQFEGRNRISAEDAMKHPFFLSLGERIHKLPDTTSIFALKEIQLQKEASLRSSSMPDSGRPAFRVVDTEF
Chain of UniProt Q52WX2 (whole entry, looked up): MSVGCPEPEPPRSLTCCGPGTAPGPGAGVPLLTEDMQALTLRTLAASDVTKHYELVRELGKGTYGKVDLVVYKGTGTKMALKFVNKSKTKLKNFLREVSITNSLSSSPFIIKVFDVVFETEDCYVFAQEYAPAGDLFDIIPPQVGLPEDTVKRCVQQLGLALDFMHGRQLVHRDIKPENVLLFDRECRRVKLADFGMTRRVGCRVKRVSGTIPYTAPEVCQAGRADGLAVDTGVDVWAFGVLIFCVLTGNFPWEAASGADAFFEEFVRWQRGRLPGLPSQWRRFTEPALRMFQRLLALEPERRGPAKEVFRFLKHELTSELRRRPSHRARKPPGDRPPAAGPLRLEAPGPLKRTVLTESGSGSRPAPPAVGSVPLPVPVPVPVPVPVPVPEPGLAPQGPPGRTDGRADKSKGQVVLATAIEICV

Study 1 — concentration: 5 µM
Structure (SMILES): O=C(Nc1cnn(-c2csc(C(=O)NC3COC3)c2)c1)Nc1ccccc1Cl
Serine/threonine-protein kinase PLK2 (PLK2, Homo sapiens, UniProt Q9NYY3); enzyme activity; relative to: untreated control — remaining activity: 85.3%.
Serine/threonine-protein kinase Sgk2 (SGK2, Homo sapiens, UniProt Q9HBY8); enzyme activity; relative to: untreated control — remaining activity: 100%.
For Aurora kinase C (AURKC, Homo sapiens, UniProt Q9UQB9); enzyme activity; relative to: untreated control: remaining activity read 100%.
It gave 90.5% for remaining activity (Myosin light chain kinase (MYLK3, Homo sapiens, UniProt Q32MK0); enzyme activity; relative to: untreated control).
It gave 95.4% for remaining activity (Tyrosine-protein kinase JAK2 (JAK2, Homo sapiens, UniProt O60674); enzyme activity; relative to: untreated control).
The remaining activity was 86.8% (Membrane-associated tyrosine- and threonine-specific cdc2-inhibitory kinase (PKMYT1, Homo sapiens, UniProt Q99640); enzyme activity; relative to: untreated control).
It gave 94.8% for remaining activity (Cyclin-dependent kinase 16, with cyclin Y (CDK16, Homo sapiens, UniProt Q00536); kinase activity, kinase panel profiling).
For Tyrosine-protein kinase receptor UFO (AXL, Homo sapiens, UniProt P30530); enzyme activity; relative to: untreated control: remaining activity read 93.8%.
For Tyrosine-protein kinase Srms (SRMS, Homo sapiens, UniProt Q9H3Y6); enzyme activity; relative to: untreated control: remaining activity read 99.2%.
Ribosomal protein S6 kinase alpha-4 (RPS6KA4, Homo sapiens, UniProt O75676); enzyme activity; relative to: untreated control — remaining activity: 90.6%.
Receptor-interacting serine/threonine-protein kinase 2 (RIPK2, Homo sapiens, UniProt O43353); enzyme activity; relative to: untreated control — remaining activity: 114%.
The remaining activity was 98.3% (Non-receptor tyrosine-protein kinase TNK1 (TNK1, Homo sapiens, UniProt Q13470); enzyme activity; relative to: untreated control).
The remaining activity was 98% (Ephrin type-A receptor 1 (EPHA1, Homo sapiens, UniProt P21709); enzyme activity; relative to: untreated control).
The remaining activity was 94.6% (Vascular endothelial growth factor receptor 2 (KDR, Homo sapiens, UniProt P35968); enzyme activity; relative to: untreated control).
It gave 106% for remaining activity (Cyclin-dependent kinase 14 (CDK14, Homo sapiens, UniProt O94921); enzyme activity; relative to: untreated control).

Study 2 — cell line: mouse MPNST tumor cells; technique: high-content immunofluorescence imaging; item: nuclear SOX9; concentration: 10 µM; time: 12 h; setting: mean of 2 replicates; relative to: DMSO control; direction: higher = more nuclear SOX9
N#Cc1c[nH]c2c(C(=O)N3CCN(CCc4ccc(F)cc4)CC3)cccc12: “nuclear SOX9 intensity” 99.3 % of DMSO.
CCC[C@H](N[C@@H](C)C(=O)N1[C@H](C(=O)O)C[C@@H]2CCCC[C@@H]21)C(=O)OCC: “nuclear SOX9 intensity” 91.1 % of DMSO.
C[C@H](CCC(=O)O)[C@H]1CC[C@H]2[C@@H]3CC[C@@H]4C[C@H](O)CC[C@]4(C)[C@H]3CC[C@]12C — result for “nuclear SOX9 intensity”: 103 % of DMSO.
O=C(O)CCC=CCC1COC(c2ccccc2Cl)OC1c1ccccc1O (stereo not drawn) — result for “nuclear SOX9 intensity”: 95.2 % of DMSO.
For CCOC(=O)c1cc(C#N)c(N2CCC(C(=O)NS(=O)(=O)Cc3ccccc3)CC2)nc1C, “nuclear SOX9 intensity” read 96.3 % of DMSO.
CC(C)[C@H](CO)Nc1nc(Nc2ccc(C(=O)O)c(Cl)c2)c2ncn(C(C)C)c2n1 — result for “nuclear SOX9 intensity”: 92.5 % of DMSO.
For O=C(O)C(Cc1c[nH]c2ccccc12)N1C(=O)c2ccccc2C1=O (stereo not drawn), “nuclear SOX9 intensity” read 105 % of DMSO.
Under “nuclear SOX9 intensity”, CCCCc1ccc2[nH]c(NC(=O)OC)nc2c1 is recorded as 210 % of DMSO.
Under “nuclear SOX9 intensity”, CC(C)N(CCCNC(=O)Nc1ccc(C(C)(C)C)cc1)C[C@H]1O[C@@H](n2cc(Br)c3c(N)ncnc32)[C@H](O)[C@@H]1O is recorded as 230 % of DMSO and 152 % of DMSO.
Under “nuclear SOX9 intensity”, O=C(c1ccc(F)cc1)C1CCN(CCn2c(=S)[nH]c3ccccc3c2=O)CC1 is recorded as 101 % of DMSO.
CCOc1ccccc1C(N)=O: “nuclear SOX9 intensity” 104 % of DMSO.
Cc1nc2sccn2c(=O)c1CCN1CCC(=C(c2ccc(F)cc2)c2ccc(F)cc2)CC1: “nuclear SOX9 intensity” 130 % of DMSO.
Under “nuclear SOX9 intensity”, CC(Cc1cccc(C(F)(F)F)c1)NCCOC(=O)c1ccccc1 (stereo not drawn) is recorded as 113 % of DMSO.
OCC(CO)N[C@H]1C[C@](O)(CO)[C@@H](O)[C@H](O)[C@H]1O: “nuclear SOX9 intensity” 117 % of DMSO.
For O=C(Nc1cnc(Cl)nc1)c1ccc(F)c(F)c1, “nuclear SOX9 intensity” read 102 % of DMSO.
Under “nuclear SOX9 intensity”, COc1ccc(C[C@@H]2c3cc(OC)c(OC)cc3CC[N@+]2(C)CCC(=O)OCCCCCOC(=O)CC[N@@+]2(C)CCc3cc(OC)c(OC)cc3[C@H]2Cc2ccc(OC)c(OC)c2)cc1OC is recorded as 77.1 % of DMSO and 89.8 % of DMSO.

Study 3 — observed: enzyme activity; action: inhibitor; concentration: 10 µM
Target: Calcium/calmodulin-dependent protein kinase type II subunit alpha (CAMK2A, Homo sapiens, UniProt Q9UQM7)
Chain of UniProt Q9UQM7 (whole entry, looked up): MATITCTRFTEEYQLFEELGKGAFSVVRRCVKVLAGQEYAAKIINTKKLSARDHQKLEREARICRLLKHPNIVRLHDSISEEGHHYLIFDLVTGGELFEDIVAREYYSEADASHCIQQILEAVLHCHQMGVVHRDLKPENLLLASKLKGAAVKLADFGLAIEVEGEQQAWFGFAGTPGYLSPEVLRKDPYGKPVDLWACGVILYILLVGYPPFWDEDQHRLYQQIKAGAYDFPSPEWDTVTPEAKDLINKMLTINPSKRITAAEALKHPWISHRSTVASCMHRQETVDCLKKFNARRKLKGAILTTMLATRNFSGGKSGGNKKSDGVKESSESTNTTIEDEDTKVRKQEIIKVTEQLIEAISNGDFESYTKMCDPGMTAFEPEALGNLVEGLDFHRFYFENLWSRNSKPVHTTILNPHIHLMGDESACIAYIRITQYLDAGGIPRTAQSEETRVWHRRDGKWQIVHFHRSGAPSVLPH
With CO[C@H]1C[C@@H]2CC[C@@H](C)[C@@](O)(O2)C(=O)C(=O)N2CCCC[C@H]2C(=O)O[C@H]([C@H](C)C[C@@H]2CC[C@@H](OCCO)[C@H](OC)C2)CC(=O)[C@H](C)/C=C(\C)[C@@H](O)[C@@H](OC)C(=O)[C@H](C)C[C@H](C)/C=C/C=C/C=C/1C the inhibition was 7%.
For CCOC(=O)O[C@]1(C(=O)OCCl)CC[C@H]2[C@@H]3CCC4=CC(=O)C=C[C@]4(C)[C@H]3[C@@H](O)C[C@@]21C, the inhibition was 0%.
For CCOC(=O)OC(C)OC(=O)[C@@H]1N2C(=O)[C@@H](NC(=O)[C@H](N)c3ccccc3)[C@H]2SC1(C)C (stereo partly drawn), the inhibition was -7%.
The inhibition of O=C(O)[C@H](O)[C@@H](O)CO is reported as 19%.
For CN1CC(=O)NC1=O, the inhibition was -14%.
For Cc1cccc2c3c(ccc12)C(O)=C(C(C)CO)C(=O)C3=O (stereo not drawn), the inhibition was -64%.
C=CC(=O)N1CCC([C@@H]2CCNc3c(C(N)=O)c(-c4ccc(Oc5ccccc5)cc4)nn32)CC1 has an inhibition of -11%.
With O=C[C@H](O)[C@@H](O)[C@H](O[C@H]1O[C@H](CO)[C@@H](O[C@H]2O[C@H](CO)[C@@H](O[C@H]3O[C@H](CO)[C@@H](O[C@H]4O[C@H](CO)[C@@H](O[C@H]5O[C@H](CO)[C@@H](O)[C@H](O)[C@H]5O)[C@H](O)[C@H]4O)[C@H](O)[C@H]3O)[C@H](O)[C@H]2O)[C@H](O)[C@H]1O)[C@H](O)CO the inhibition was 1%.
For C[C@]12CCC(=O)C=C1[C@@H]1C[C@@H]1[C@H]1[C@@H]3[C@@H]4C[C@@H]4[C@@]4(CCC(=O)O4)[C@@]3(C)CC[C@@H]12, the inhibition was 3%.
CCCCCCCC(O)CC(=O)O (stereo not drawn) has an inhibition of 5%.
OC[C@H]1O[C@@](CO)(OC[C@@]2(OC[C@@]3(OC[C@@]4(OC[C@@]5(OC[C@@]6(OC[C@@]7(O[C@H]8O[C@H](CO)[C@@H](O)[C@H](O)[C@H]8O)O[C@H](CO)[C@@H](O)[C@@H]7O)O[C@H](CO)[C@@H](O)[C@@H]6O)O[C@H](CO)[C@@H](O)[C@@H]5O)O[C@H](CO)[C@@H](O)[C@@H]4O)O[C@H](CO)[C@@H](O)[C@@H]3O)O[C@H](CO)[C@@H](O)[C@@H]2O)[C@@H](O)[C@@H]1O gave an inhibition of 2%.
CNC[C@@H]1CC[C@@H](N)[C@@H](O[C@H]2[C@H](O)[C@@H](O[C@H]3OC[C@](C)(O)[C@H](NC)[C@H]3O)[C@H](N)C[C@@H]2N)O1 has an inhibition of -8%.
CC1CNC(=O)NC1=O (stereo not drawn) has an inhibition of 2%.

Study 4 — Structure (SMILES): CCC(=N\O)/C(C)=C/c1ccc(F)cc1; observed: cell-free assay; technique: competition with immobilised ligand; concentration: 1 µM
It gave 76% for remaining binding (Hepatocyte growth factor receptor (MET, Homo sapiens, UniProt P08581, M1250T)).
It gave 100% for remaining binding (Serine/threonine-protein kinase STK11 (STK11, Homo sapiens, UniProt Q15831)).
It gave 61% for remaining binding (Epidermal growth factor receptor (EGFR, Homo sapiens, UniProt P00533, del746-750)).
It gave 96% for remaining binding (Maternal embryonic leucine zipper kinase (MELK, Homo sapiens, UniProt Q14680)).
Receptor-type tyrosine-protein kinase FLT3 (FLT3, Homo sapiens, UniProt P36888, D835V/ITD) — remaining binding: 76%.
The remaining binding was 90% (Cyclin-dependent kinase 17 (CDK17, Homo sapiens, UniProt Q00537)).
Dual specificity protein kinase TTK (TTK, Homo sapiens, UniProt P33981) — remaining binding: 96%.
BMP-2-inducible protein kinase (BMP2K, Homo sapiens, UniProt Q9NSY1) — remaining binding: 80%.
For Ephrin type-A receptor 7 (EPHA7, Homo sapiens, UniProt Q15375): remaining binding read 86%.
For RAC-beta serine/threonine-protein kinase (AKT2, Homo sapiens, UniProt P31751): remaining binding read 88%.
For Ribosomal protein S6 kinase alpha-2, N-terminal kinase domain (RPS6KA2, Homo sapiens, UniProt Q15349): remaining binding read 85%.
Serine/threonine-protein kinase 36 (STK36, Homo sapiens, UniProt Q9NRP7) — remaining binding: 84%.
It gave 63% for remaining binding (Mitogen-activated protein kinase kinase kinase 1 (MAP3K1, Homo sapiens, UniProt Q13233)).
For Serine/threonine-protein kinase Nek5 (NEK5, Homo sapiens, UniProt Q6P3R8): remaining binding read 84%.
The remaining binding was 97% (Wee1-like protein kinase (WEE1, Homo sapiens, UniProt P30291)).
For Serine/threonine-protein kinase Nek3 (NEK3, Homo sapiens, UniProt P51956): remaining binding read 100%.
The remaining binding was 100% (Serine/threonine-protein kinase SBK1 (SBK1, Homo sapiens, UniProt Q52WX2)).
Tyrosine-protein kinase HCK (HCK, Homo sapiens, UniProt P08631) — remaining binding: 100%.
The remaining binding was 97% (Mitogen-activated protein kinase kinase kinase kinase 2 (MAP4K2, Homo sapiens, UniProt Q12851)).
Myosin light chain kinase 2, skeletal/cardiac muscle (MYLK2, Homo sapiens, UniProt Q9H1R3) — remaining binding: 81%.
The remaining binding was 65% (Epidermal growth factor receptor (EGFR, Homo sapiens, UniProt P00533, del747-750/T751S)).
The remaining binding was 100% (Receptor-type tyrosine-protein kinase FLT3 (FLT3, Homo sapiens, UniProt P36888, D835H)).
The remaining binding was 100% (Mitogen-activated protein kinase kinase kinase 15 (MAP3K15, Homo sapiens, UniProt Q6ZN16)).
Glycogen synthase kinase-3 beta (GSK3B, Homo sapiens, UniProt P49841) — remaining binding: 79%.
The remaining binding was 85% (Hepatocyte growth factor receptor (MET, Homo sapiens, UniProt P08581, Y1235D)).

Excerpt of the above (study 1):
It gave 94.8% for remaining activity (Cyclin-dependent kinase 16, with cyclin Y (CDK16, Homo sapiens, UniProt Q00536); kinase activity, kinase panel profiling).
It gave 106% for remaining activity (Cyclin-dependent kinase 14 (CDK14, Homo sapiens, UniProt O94921); enzyme activity; relative to: untreated control).
Receptor-interacting serine/threonine-protein kinase 2 (RIPK2, Homo sapiens, UniProt O43353); enzyme activity; relative to: untreated control — remaining activity: 114%.
The remaining activity was 98.3% (Non-receptor tyrosine-protein kinase TNK1 (TNK1, Homo sapiens, UniProt Q13470); enzyme activity; relative to: untreated control).
It gave 90.5% for remaining activity (Myosin light chain kinase (MYLK3, Homo sapiens, UniProt Q32MK0); enzyme activity; relative to: untreated control).
For Aurora kinase C (AURKC, Homo sapiens, UniProt Q9UQB9); enzyme activity; relative to: untreated control: remaining activity read 100%.
Serine/threonine-protein kinase PLK2 (PLK2, Homo sapiens, UniProt Q9NYY3); enzyme activity; relative to: untreated control — remaining activity: 85.3%.
For Tyrosine-protein kinase receptor UFO (AXL, Homo sapiens, UniProt P30530); enzyme activity; relative to: untreated control: remaining activity read 93.8%.
The remaining activity was 94.6% (Vascular endothelial growth factor receptor 2 (KDR, Homo sapiens, UniProt P35968); enzyme activity; relative to: untreated control).
The remaining activity was 86.8% (Membrane-associated tyrosine- and threonine-specific cdc2-inhibitory kinase (PKMYT1, Homo sapiens, UniProt Q99640); enzyme activity; relative to: untreated control).
Serine/threonine-protein kinase Sgk2 (SGK2, Homo sapiens, UniProt Q9HBY8); enzyme activity; relative to: untreated control — remaining activity: 100%.
